Measured values of several laboratories.
A part holds a random share of what one study measured. “And” joins repeats or separate records; there may be more than shown.

Set 1
Cell line: mouse MPNST tumor cells
Method: high-content immunofluorescence imaging
Item: nuclear SOX9
Concentration: 10 µM
Time: 12 h
Setting: mean of 2 replicates
Baseline: DMSO control
Direction: higher = more nuclear SOX9
Under “nuclear SOX9 intensity”, O=C1Cc2c([nH]c3ccc(Br)cc23)-c2ccccc2N1 is recorded as 90.3 % of DMSO.
For COc1ccc(CC(=O)NC(/N=C(\NC#N)Nc2cccc3ncccc23)C(C)(C)C)cc1OC (stereo not shown), “nuclear SOX9 intensity” read 99.9 % of DMSO.
For Cn1c(=O)c2c(ncn2CCO)n(C)c1=O, “nuclear SOX9 intensity” read 98 % of DMSO.
Under “nuclear SOX9 intensity”, NC(=O)c1ccc(N(C(N)=O)c2c(F)cccc2F)nc1-c1ccc(F)cc1F is recorded as 101 % of DMSO.
For CCOc1ccccc1OCC1CNCCO1 (stereo not shown), “nuclear SOX9 intensity” read 101 % of DMSO.
For COc1cccc([C@@H](C)NCCCc2ccccc2Cl)c1, “nuclear SOX9 intensity” read 174 % of DMSO.
N[C@@H]1CCCCN(c2c(F)cc3c(=O)c(C(=O)O)cn(C4CC4)c3c2Cl)C1: “nuclear SOX9 intensity” 99.7 % of DMSO.

Set 2
Target: Serine/threonine-protein kinase haspin (HASPIN, Homo sapiens, UniProt Q8TF76)
Observed: enzyme activity
Mode: inhibitor
Concentration: 0.5 µM
Baseline: control
Residues (Q8TF76 1-798): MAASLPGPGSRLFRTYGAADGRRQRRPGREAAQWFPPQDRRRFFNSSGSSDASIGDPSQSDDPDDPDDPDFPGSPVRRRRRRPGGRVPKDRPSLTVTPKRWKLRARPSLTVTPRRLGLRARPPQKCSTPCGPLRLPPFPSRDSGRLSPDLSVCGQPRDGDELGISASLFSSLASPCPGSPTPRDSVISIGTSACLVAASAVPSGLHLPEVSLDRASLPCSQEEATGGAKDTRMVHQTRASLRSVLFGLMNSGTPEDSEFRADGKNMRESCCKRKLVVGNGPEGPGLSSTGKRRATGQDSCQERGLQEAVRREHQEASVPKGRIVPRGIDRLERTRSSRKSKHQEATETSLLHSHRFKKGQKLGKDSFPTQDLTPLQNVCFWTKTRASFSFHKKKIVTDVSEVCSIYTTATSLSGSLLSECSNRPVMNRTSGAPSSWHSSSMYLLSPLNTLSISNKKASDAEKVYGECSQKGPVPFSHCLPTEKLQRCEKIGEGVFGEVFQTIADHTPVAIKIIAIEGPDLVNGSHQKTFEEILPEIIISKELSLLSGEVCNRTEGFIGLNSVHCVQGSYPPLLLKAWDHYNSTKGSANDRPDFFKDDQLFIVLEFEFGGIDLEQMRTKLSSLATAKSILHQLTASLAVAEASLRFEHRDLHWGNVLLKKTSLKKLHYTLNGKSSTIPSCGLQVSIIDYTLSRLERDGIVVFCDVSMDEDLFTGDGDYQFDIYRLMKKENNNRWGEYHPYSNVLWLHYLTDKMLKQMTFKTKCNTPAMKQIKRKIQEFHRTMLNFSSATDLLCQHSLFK
O=c1c(-c2ccc(F)cc2)c(-c2ccncc2)[nH]n1-c1ccc(Cl)cc1 gave a remaining activity of 96.5%.
O=C1NC(=O)/C(=C/c2ccc3c(c2)OC(F)(F)O3)S1 has a remaining activity of 96.7%.
O=Nc1c(-c2c(O)[nH]c3ccccc23)[nH]c2ccccc12 gave a remaining activity of 65.6%.
For O=C1c2ccccc2-c2nc3nnnn3nc21, the remaining activity was 79.2%.
For NC(=O)c1ccc(-c2nc(-c3ccc4c(c3)OCCO4)c(-c3ccccn3)[nH]2)cc1, the remaining activity was 86%.
CNc1cc2c(Nc3cccc(Br)c3)ncnc2cn1 has a remaining activity of 91.8%.

Set 3
Structure (SMILES): CCOc1ccc(Nc2c3c(nc4ccccc24)CCC3)cc1
HepG2; resazurin; 16.66 µM, 48 h — cytotoxicity: 71%.
It gave 100% for cytotoxicity (HepG2; resazurin; 66.66 µM, 48 h).
The cytotoxicity was -4% and 8% (RAW264.7; resazurin; 0.66 µM).
It gave 2% for cytotoxicity (PMA-differentiated THP-1 macrophages; 0.8 µM, 64 h).
The cytotoxicity was -4% (J774.1; resazurin; 0.0166 µM).

Single results of other studies
The viability of CN(C)C(=O)N1CC[C@H](N=C2Nc3cc(F)ccc3N(CC(F)F)c3ccc(Cl)cc32)C1 is reported as 114% (colorectal tumour organoids; 0.1 µM; baseline: DMSO).
